Published values of several laboratories.
Protocols differ between the studies behind these lines. ± gives the spread as reported.
Genome polyprotein NS2B-NS3 protease: Genome polyprotein, NS2B-NS3 protease (ZIKV, UniProt A0A024B7W1)
MCA2: Metacaspase-2 (MCA2, Trypanosoma brucei brucei, UniProt Q585F3)
blaNDM-1: Metallo-beta-lactamase type 2 (blaNDM-1, Klebsiella pneumoniae, UniProt C7C422)
Oprm1: Mu-type opioid receptor (Oprm1, Rattus norvegicus, UniProt P33535)
HTR2B: 5-hydroxytryptamine receptor 2B (HTR2B, Homo sapiens, UniProt P41595)

CC(C)C[C@H](NC(=O)[C@H](CCCCN)NC(=O)[C@H](CCCCN)NC(=O)Cc1ccccc1)B(O)O
Ki (Genome polyprotein NS2B-NS3 protease; inhibitor; Zika virus): 0.845 ± 0.236 µM

CC(C)C[C@H](NC(=O)[C@H](C)NC(=O)[C@H](CCCCN)NC(=O)c1ccccc1N)C(=O)N[C@@H](CO)C(=O)N[C@@H](CO)C(=O)N[C@@H](C)C(=O)N[C@@H](CCC(N)=O)C(=O)NCCNc1ccc([N+](=O)[O-])cc1[N+](=O)[O-]
Ki (MCA2; enzyme activity, competitive inhibitor; Trypanosoma brucei; together with: Z-FR-AMC substrate): 9.4 µM

CN(C)[C@H](CNC(=O)/C=C/c1cccc2ccccc12)Cc1ccc(O)cc1
Ki (NTSR1 (Homo sapiens, UniProt P30989)): > 50 µM

CC[C@H](C)[C@H](NC(=O)[C@H](C)NC(=O)[C@H](CCCCN)NC(=O)c1ccccc1N)C(=O)N[C@@H](CO)C(=O)N[C@@H](CO)C(=O)N[C@@H](C)C(=O)N[C@@H](CCC(N)=O)C(=O)NCCNc1ccc([N+](=O)[O-])cc1[N+](=O)[O-]
Ki (MCA2; enzyme activity, competitive inhibitor; Trypanosoma brucei; together with: Z-FR-AMC substrate): 4.8 µM

Cc1cc(O)cc(C)c1C[C@H](N)C(=O)N[C@H](CCCNC(=N)N)C(=O)N[C@@H](Cc1ccccc1)C(=O)N(C)CC(=O)N(C)Cc1cc(C(F)(F)F)cc(C(F)(F)F)c1
Ki (OPRD1 (Homo sapiens, UniProt P41143, D95G)): 0.00692 ± 6e-05 µM

CC(C)C[C@@H]1NC(=O)[C@@H]2CCCN2C(=O)[C@@H](CS)NC(=O)[C@H](Cc2ccc(O)cc2)NC(=O)[C@@H](CCCNC(=N)N)NC(=O)[C@@H]([C@H](C)O)NC(=O)[C@H](CCC(=O)O)NC(=O)[C@@H]2CCCN2C1=O
Ki (blaNDM-1; enzyme activity, inhibitor; together with: nitrocefin 1.5 µM): 16.5 µM

COc1ccccc1N1CCN(CCCCN2CCCc3ccccc3C2=O)CC1
Ki (ADRA1B (Homo sapiens, UniProt P35368); ligand displacement, radioligand): 0.125 µM

OC1Cc2ccccc2CC1N1CCC2(C=Cc3cc(Br)ccc32)CC1 (racemic)
Ki (Tmem97 (Rattus norvegicus, UniProt Q5U3Y7); binding, radioligand displacement; rat liver membranes; together with: [3H]DTG, dextrallorphan 1 µM masking): 0.49 ± 0.35 µM

CCCC[C@@H]1NC(=O)[C@@H](CCC(N)=O)NC(=O)[C@H]2CCCN2C(=O)[C@H]([C@@H](C)CC)NC(=O)[C@@H]2C[C@@H](O)CN2C(=O)[C@H](Cc2ccccc2CN)NC(=O)[C@@H]2CCCN2C(=O)[C@@H](CS)NC1=O
Ki (blaNDM-1; enzyme activity, inhibitor; together with: nitrocefin 1.5 µM): 34.4 µM

CC(C)C[C@H](NC(=O)[C@H](CCCCN)NC(=O)[C@H](CCCCN)NC(=O)Cc1cccc(CNC(=O)CNC(=O)CNC(=N)N)c1)B(O)O
Ki (Genome polyprotein NS2B-NS3 protease; inhibitor; Zika virus): 0.0315 ± 0.0047 µM

C[C@H](NC(=O)[C@H](CCCCN)NC(=O)c1ccccc1N)C(=O)N[C@@H](CCCNC(=N)N)C(=O)N[C@@H](Cc1ccccc1)C(=O)N[C@@H](CO)C(=O)N[C@@H](C)C(=O)N[C@@H](CCC(N)=O)C(=O)NCCNc1ccc([N+](=O)[O-])cc1[N+](=O)[O-]
Ki (MCA2; enzyme activity, competitive inhibitor; Trypanosoma brucei; together with: Z-FR-AMC substrate): 3.9 µM

Cc1cc(O)cc(C)c1CCC(=O)N[C@@H]1C/C=C\CC[C@@H](C(N)=O)NC(=O)[C@H](Cc2ccccc2)NC(=O)[C@H](Cc2ccccc2)NC1=O
Ki (Oprm1; ligand displacement, radioligand; cell membranes): 0.0235 µM

COc1ccc(CC[C@H]2OC(=O)[C@@H]3CCCCN3C(=O)C(=O)C(C)(C)COC(=O)/C=C/CCN(C)C(=O)[C@H](CC(C)C)N(C)C(=O)[C@@H]3CCCN3C(=O)[C@H](Cc3ccccc3)N(C)C(=O)[C@H](c3ccccc3)NC(=O)CCC(=O)Nc3cccc2c3)cc1OC
Ki (FKBP5 (Homo sapiens, UniProt Q13451); enzyme activity, inhibitor): 0.184 µM

CCCC[C@@H]1NC(=O)[C@@H](CCC(N)=O)NC(=O)[C@H]2CCCN2C(=O)[C@H](CCCCN)NC(=O)[C@@H]2C[C@@H](O)CN2C(=O)[C@H](Cc2ccccc2CN)NC(=O)[C@@H]2CCCN2C(=O)[C@@H](CS)NC1=O
Ki (blaNDM-1; enzyme activity, inhibitor; together with: nitrocefin 1.5 µM): 114 µM

Cc1cc(N2CC3CC2CN3)nc2cc(Cl)ccc12 (centres unmarked)
Ki (Slc6a4 (Rattus norvegicus, UniProt P31652); ligand displacement, radioligand): 0.152 µM

C[C@H](NC(=O)[C@H](CCCCN)NC(=O)c1ccccc1N)C(=O)N[C@@H](CC(N)=O)C(=O)N[C@@H](CO)C(=O)N[C@@H](CO)C(=O)N[C@@H](C)C(=O)N[C@@H](CCC(N)=O)C(=O)NCCNc1ccc([N+](=O)[O-])cc1[N+](=O)[O-]
Ki (MCA2; enzyme activity, competitive inhibitor; Trypanosoma brucei; together with: Z-FR-AMC substrate): 6.7 µM

COc1cc2c(cc1O)C(CCc1ccc(Cl)cc1)N(C)CC2 (centres unmarked)
Ki (HTR2B; cell-free assay, radioligand): 1.7 µM

C[C@H](NC(=O)[C@H](CCCCN)NC(=O)c1ccccc1N)C(=O)N[C@@H](CO)C(=O)N[C@@H](CO)C(=O)N[C@@H](CO)C(=O)N[C@@H](C)C(=O)N[C@@H](CCC(N)=O)C(=O)NCCNc1ccc([N+](=O)[O-])cc1[N+](=O)[O-]
Ki (MCA2; enzyme activity, competitive inhibitor; Trypanosoma brucei; together with: Z-FR-AMC substrate): 7.8 µM

CC(C)[C@@H](Nc1nc(Cl)nc2c1ncn2[C@H]1[C@H](O)[C@H](O)[C@]2(CF)C[C@H]12)C1CC1
Ki (HTR2B; ligand displacement, radioligand): 0.934 µM

CC(=O)N[C@@H](CCCNC(=N)N)C(=O)N[C@H](C(=O)N[C@@H](CCCCN)C(=O)N[C@@H](CCCNC(=N)N)C(N)=O)C(C)C
Ki (Proprotein convertase subtilisin/kexin type 7 (Homo sapiens, UniProt Q16549); enzyme activity, inhibitor): 4.3 µM

Cc1cc(O)cc(C)c1C[C@H](N)C(=O)N[C@H](CCCNC(=N)N)C(=O)N[C@@H](Cc1ccccc1)C(=O)N[C@@H](CCCCN)C(=O)NCCCCCCCCNC(=O)[C@H](Cc1ccccc1)NC(=O)[C@H](CC1CCCCC1)NC[C@@H]1Cc2ccccc2CN1C(=O)[C@@H](N)Cc1ccc(O)cc1
Ki (Oprm1; ligand displacement, radioligand; cell membranes): 0.0287 µM

Cc1cc(B2OC(C)(C)C(C)(C)O2)ccc1S(N)(=O)=O
Ki (Uncharacterized hydrolase SAUSA300_2518 (Staphylococcus aureus, UniProt Q2FDS6); enzyme activity, inhibitor): 4.62 µM

CC[C@H](C)[C@@H]1NC(=O)[C@@H]2CCCN2C(=O)[C@@H](CS)NC(=O)[C@H](CC(C)C)NC(=O)[C@@H](CCCNC(=N)N)NC(=O)[C@@H]([C@H](C)O)NC(=O)C(C)(C)NC(=O)[C@@H]2CCCN2C1=O
Ki (blaNDM-1; enzyme activity, inhibitor; together with: nitrocefin 1.5 µM): 15.4 µM

C[C@H](NC(=O)[C@H](CCCCN)NC(=O)c1ccccc1N)C(=O)N[C@@H](Cc1ccc(O)cc1)C(=O)N[C@@H](CO)C(=O)N[C@@H](CO)C(=O)N[C@@H](C)C(=O)N[C@@H](CCC(N)=O)C(=O)NCCNc1ccc([N+](=O)[O-])cc1[N+](=O)[O-]
Ki (MCA2; enzyme activity, competitive inhibitor; Trypanosoma brucei; together with: Z-FR-AMC substrate): 3.8 µM

CC(C)[C@@H]1NC(=O)[C@@H]2CCCN2C(=O)[C@@H](CS)NC(=O)[C@H](CCCCN)NC(=O)[C@H](CCCCN)NC(=O)[C@H](CC(=O)O)NC(=O)[C@H]2CCCN2C(=O)[C@@H]2CCCN2C1=O
Ki (blaNDM-1; enzyme activity, inhibitor; together with: nitrocefin 1.5 µM): 22.3 µM

CC(C)C[C@H](NC(=O)[C@H](CCCCN)NC(=O)[C@H](CCCNC(=N)N)NC(=O)Cc1cccc(CNC(=O)[C@@H](C)NC(=N)N)c1)B(O)O
Ki (Genome polyprotein NS2B-NS3 protease; inhibitor; Zika virus): 0.0508 ± 0.0055 µM

Excerpt of the above:
C[C@H](NC(=O)[C@H](CCCCN)NC(=O)c1ccccc1N)C(=O)N[C@@H](CC(N)=O)C(=O)N[C@@H](CO)C(=O)N[C@@H](CO)C(=O)N[C@@H](C)C(=O)N[C@@H](CCC(N)=O)C(=O)NCCNc1ccc([N+](=O)[O-])cc1[N+](=O)[O-]
Ki (MCA2; enzyme activity, competitive inhibitor; Trypanosoma brucei; together with: Z-FR-AMC substrate): 6.7 µM

CC(C)[C@@H](Nc1nc(Cl)nc2c1ncn2[C@H]1[C@H](O)[C@H](O)[C@]2(CF)C[C@H]12)C1CC1
Ki (HTR2B; ligand displacement, radioligand): 0.934 µM
